Measurements pooled from the literature.
Parts stem from different laboratories: compare values within a part only. Substitutions count along the parent as printed.

Sample 1
Target: Histone acetyltransferase KAT6A, both winged helices, GST fusion (KAT6A, Homo sapiens, UniProt Q92794, residues 1-181)
Method: protein binding microarray
Molecule type: double-stranded DNA, one strand shown
Medium: in vitro
Concentration: not given
Setting: 8-mer, flanks averaged, mean of 2 arrays, mostly near background
Baseline: not given
Reading: higher = stronger binding
Endpoint: E-score
Residues (chain): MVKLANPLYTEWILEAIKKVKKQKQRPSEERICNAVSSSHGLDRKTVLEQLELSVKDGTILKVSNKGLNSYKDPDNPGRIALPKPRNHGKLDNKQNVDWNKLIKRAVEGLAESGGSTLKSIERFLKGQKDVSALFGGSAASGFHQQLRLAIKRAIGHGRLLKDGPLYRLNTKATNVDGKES
AGGCAGTA: -0.134
GCCTTATA: -0.0714
CTTACATC: -0.125
CGCGGAAG: 0.281
CGCGGTGA: 0.263
CTCAACCA: -0.0933
CAAACATG: -0.0476
ATGTCACC: -0.0362
CTAAATGA: -0.0486
CAGCGTGC: 0.147

Sample 2
Target: CCND3, cyclin fold, Cln2 fusion (human)
Method: yeast growth competition, sequencing
Medium: yeast
Setting: weak parent motif
Baseline: not given
Reading: higher = stronger binding
Endpoint: normalised enrichment score
Starting sequence: CDKN1B docking peptide (human); PSACRNLFGPVDH
PSACRNLFGPVDM [H13M]: 0.0783
PSGCRNLFGPVDH [A3G]: 0.0989
YSACRNLFGPVDH [P1Y]: 0.168
PSACWNLFGPVDH [R5W]: 0.0821
PSACRNLFGPVDP [H13P]: 0.129
PSARRNLFGPVDH [C4R]: 0.123
PSECRNLFGPVDH [A3E]: 0.188
PSACRNLGGPVDH [F8G]: 0.0551
PSACRNLFGPVDL [H13L]: 0.111

Sample 3
Target: ABI1, truncated, D143A, DHFR fusion (Arabidopsis thaliana)
Method: DHFR PCA, deep sequencing
Medium: yeast
Setting: methotrexate growth selection, single substitutions
Together with: (+)-ABA 0.0091 µM
Baseline: wild-type fitted maximum
Reading: higher = stronger binding
Endpoint: relative binding score
Starting sequence: PYL1, truncated, DHFR fusion (Arabidopsis thaliana); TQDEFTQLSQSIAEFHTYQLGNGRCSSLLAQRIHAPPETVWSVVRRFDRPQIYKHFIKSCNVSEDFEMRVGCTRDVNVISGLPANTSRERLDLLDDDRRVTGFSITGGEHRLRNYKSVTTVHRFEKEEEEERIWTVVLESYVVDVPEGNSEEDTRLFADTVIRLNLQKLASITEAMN
L8I: 13.5%
T106D: 33.1%
S140Q: -3.67%
D144M: -3.76%
F47C: 2.89%
E109L: -5.62%
C72A: 63%
E151G: 4.82%

Other studies, line by line
PhoQ, residues 284 288 289 292 302 303 TLSLKA — fold induction (PhoP, residues 12 14 15 18 19 IQSYL (Escherichia coli, UniProt P23836); Sort-seq, item: YFP reporter; E. coli; PhoQ-PhoP variant library, together with: 10 µM Mg2+; baseline: high Mg2+ state, higher = stronger signaling): 2.25

Some of these lines once more (sample 2):
PSACRNLGGPVDH [F8G]: 0.0551
PSARRNLFGPVDH [C4R]: 0.123
